Results of several laboratories.
Lines come from different studies, so protocols differ. Numbers after ± are the reported error.
YWHAZ: 14-3-3 protein zeta/delta (YWHAZ, Homo sapiens, UniProt P63104)
UniProt P63104, sequence (whole entry, looked up): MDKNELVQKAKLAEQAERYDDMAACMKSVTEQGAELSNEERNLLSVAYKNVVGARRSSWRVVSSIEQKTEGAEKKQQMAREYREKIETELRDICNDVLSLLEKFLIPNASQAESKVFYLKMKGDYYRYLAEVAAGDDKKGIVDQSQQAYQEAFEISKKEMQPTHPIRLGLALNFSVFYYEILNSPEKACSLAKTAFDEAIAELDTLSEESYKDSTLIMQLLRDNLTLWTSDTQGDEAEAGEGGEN
UniProt P53350, sequence (whole entry, looked up): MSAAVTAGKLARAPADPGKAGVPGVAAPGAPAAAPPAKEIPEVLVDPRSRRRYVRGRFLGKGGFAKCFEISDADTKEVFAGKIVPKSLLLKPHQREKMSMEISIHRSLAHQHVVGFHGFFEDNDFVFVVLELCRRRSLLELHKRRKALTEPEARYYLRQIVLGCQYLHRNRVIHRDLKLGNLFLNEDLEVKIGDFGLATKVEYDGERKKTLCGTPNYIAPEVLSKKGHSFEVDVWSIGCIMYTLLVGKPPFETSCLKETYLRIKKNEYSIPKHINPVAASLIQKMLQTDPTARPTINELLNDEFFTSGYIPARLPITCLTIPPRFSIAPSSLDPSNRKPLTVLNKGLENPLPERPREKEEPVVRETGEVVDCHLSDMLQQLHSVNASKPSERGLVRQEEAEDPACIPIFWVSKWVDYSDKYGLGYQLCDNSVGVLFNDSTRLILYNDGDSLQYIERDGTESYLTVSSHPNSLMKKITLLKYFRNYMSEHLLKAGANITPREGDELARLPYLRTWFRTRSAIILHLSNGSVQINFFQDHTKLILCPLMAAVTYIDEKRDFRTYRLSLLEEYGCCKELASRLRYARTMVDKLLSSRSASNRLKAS
UniProt Q8TDX7, sequence (whole entry, looked up): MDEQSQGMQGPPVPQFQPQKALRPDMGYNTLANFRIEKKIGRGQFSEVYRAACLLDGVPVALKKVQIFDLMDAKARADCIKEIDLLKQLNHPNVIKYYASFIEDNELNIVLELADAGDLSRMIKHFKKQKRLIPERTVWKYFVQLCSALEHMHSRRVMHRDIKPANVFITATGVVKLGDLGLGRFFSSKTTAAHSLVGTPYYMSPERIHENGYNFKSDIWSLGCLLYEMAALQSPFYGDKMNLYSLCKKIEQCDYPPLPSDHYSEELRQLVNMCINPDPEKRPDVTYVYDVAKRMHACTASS
UniProt Q07741, sequence (whole entry, looked up): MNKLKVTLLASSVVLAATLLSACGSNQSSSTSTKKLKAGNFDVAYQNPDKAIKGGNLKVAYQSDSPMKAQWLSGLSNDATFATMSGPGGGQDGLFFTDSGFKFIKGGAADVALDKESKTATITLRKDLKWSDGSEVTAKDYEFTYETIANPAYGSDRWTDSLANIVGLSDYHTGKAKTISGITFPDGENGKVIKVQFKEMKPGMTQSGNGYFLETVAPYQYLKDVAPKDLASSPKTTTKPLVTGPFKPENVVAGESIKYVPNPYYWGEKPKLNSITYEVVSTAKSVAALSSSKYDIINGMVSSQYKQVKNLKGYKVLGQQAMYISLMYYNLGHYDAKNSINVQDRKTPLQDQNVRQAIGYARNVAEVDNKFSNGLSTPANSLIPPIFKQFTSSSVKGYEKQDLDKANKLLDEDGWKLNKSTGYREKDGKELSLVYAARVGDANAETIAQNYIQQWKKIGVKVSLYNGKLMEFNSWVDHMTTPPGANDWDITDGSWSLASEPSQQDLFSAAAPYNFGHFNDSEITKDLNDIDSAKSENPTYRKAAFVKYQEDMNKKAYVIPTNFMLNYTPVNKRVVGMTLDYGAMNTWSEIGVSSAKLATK
UniProt Q767F1, sequence (whole entry, looked up): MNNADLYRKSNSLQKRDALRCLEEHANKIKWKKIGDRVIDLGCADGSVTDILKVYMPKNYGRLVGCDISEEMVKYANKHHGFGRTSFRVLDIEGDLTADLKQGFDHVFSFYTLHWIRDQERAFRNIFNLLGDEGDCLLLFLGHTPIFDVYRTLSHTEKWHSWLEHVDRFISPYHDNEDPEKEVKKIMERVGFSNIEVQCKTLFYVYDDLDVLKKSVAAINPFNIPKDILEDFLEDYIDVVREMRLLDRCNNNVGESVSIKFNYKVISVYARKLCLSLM
UniProt Q9BR39, sequence (whole entry, unmodified, looked up): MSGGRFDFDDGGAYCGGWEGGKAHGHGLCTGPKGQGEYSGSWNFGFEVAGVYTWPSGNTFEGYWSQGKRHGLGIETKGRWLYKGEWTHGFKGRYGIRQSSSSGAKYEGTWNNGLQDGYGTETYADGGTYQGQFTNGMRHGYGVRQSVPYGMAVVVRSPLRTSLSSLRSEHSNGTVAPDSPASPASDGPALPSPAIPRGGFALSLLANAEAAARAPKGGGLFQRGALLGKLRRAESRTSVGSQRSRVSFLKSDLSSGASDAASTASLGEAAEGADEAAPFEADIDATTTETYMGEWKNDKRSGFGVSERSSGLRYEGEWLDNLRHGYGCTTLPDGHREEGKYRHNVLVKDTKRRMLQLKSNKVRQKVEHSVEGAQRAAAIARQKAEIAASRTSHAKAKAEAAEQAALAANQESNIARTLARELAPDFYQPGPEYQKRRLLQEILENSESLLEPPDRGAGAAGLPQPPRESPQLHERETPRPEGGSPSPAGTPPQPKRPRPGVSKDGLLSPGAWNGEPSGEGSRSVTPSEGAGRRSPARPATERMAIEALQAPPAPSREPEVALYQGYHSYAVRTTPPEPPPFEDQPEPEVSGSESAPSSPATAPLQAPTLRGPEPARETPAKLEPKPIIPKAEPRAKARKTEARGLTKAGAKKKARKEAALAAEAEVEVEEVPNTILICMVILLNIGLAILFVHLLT
UniProt Q05097, sequence (whole entry, looked up): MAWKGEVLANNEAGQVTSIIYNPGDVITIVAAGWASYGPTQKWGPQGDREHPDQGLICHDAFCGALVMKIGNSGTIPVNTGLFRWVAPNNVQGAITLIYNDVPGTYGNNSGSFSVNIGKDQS
UniProt C7C422, sequence (whole entry, looked up): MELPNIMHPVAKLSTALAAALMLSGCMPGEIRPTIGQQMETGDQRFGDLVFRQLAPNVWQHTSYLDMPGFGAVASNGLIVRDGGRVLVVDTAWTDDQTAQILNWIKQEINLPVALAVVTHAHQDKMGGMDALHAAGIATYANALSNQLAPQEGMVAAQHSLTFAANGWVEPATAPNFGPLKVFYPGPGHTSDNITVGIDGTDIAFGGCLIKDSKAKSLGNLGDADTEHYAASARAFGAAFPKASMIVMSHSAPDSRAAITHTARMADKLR
UniProt O35082, sequence (whole entry, looked up): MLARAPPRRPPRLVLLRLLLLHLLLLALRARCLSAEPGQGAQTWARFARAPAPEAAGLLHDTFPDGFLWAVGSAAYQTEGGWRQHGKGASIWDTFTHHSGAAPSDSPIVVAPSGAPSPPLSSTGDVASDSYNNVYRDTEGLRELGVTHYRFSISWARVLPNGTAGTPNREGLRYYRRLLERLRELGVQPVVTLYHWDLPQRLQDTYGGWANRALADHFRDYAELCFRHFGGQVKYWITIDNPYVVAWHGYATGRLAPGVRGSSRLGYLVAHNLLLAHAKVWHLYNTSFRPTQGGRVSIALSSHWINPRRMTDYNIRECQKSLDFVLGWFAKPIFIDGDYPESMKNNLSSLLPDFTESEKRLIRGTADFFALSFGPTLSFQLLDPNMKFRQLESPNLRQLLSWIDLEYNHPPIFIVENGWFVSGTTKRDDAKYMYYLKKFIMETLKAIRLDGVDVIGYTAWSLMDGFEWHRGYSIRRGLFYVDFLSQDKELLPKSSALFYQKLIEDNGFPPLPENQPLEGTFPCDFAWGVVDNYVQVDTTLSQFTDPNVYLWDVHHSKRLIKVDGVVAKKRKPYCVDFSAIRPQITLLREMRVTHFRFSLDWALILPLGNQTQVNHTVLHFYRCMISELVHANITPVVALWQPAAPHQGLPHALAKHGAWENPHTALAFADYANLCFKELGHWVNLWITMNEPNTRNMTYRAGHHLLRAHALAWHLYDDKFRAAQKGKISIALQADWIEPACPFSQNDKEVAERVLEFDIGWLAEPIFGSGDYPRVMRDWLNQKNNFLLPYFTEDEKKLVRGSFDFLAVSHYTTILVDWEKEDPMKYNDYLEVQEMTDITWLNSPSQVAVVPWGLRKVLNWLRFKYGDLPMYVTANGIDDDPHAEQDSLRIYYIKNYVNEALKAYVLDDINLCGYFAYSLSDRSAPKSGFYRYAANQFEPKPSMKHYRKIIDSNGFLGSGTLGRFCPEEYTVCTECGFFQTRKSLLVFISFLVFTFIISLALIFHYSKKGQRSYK
UniProt O66465, sequence (whole entry, unmodified, looked up): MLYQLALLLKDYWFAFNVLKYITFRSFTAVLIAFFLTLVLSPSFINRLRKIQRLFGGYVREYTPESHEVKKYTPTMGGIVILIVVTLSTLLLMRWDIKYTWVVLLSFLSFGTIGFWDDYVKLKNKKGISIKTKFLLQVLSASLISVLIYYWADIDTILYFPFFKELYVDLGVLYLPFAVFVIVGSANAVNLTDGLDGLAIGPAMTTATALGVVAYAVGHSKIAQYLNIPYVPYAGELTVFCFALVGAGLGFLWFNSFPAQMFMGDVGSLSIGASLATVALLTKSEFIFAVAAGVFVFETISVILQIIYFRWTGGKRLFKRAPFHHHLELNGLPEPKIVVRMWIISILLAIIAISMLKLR
UniProt P41595, sequence (whole entry, looked up): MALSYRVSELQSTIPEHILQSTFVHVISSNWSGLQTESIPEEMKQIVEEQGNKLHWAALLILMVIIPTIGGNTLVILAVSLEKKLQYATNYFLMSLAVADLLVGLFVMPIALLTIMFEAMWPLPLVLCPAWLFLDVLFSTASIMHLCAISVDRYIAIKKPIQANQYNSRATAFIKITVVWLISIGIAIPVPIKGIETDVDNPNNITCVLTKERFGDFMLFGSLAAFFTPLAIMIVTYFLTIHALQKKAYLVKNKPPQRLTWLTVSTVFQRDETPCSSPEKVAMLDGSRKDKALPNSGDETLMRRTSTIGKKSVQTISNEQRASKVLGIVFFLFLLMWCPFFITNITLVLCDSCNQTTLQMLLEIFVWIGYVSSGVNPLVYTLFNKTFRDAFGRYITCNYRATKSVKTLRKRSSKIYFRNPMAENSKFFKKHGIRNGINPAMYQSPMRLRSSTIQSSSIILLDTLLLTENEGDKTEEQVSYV

SMILES	target	assay	conditions	Kd
CC(=O)NC1C(OC2C(O)C(CO)OC(O)C2OC2OC(C)C(O)C(O)C2O)OC(CO)C(O)C1O (stereo not drawn)	sly (Streptococcus suis, UniProt Q55996)	binding		8.7 nM
N=C(N)NCCC[C@H](NC(=O)[C@H](Cc1ccccc1)NC(=O)[C@@H]1CCCN1C(=O)[C@H](CO)NC(=O)[C@H](Cc1ccccc1)NC(=O)CNC(=O)[C@@H]1CCCN1C(=O)[C@@H]1CCCN1C(=O)[C@@H](N)CCCNC(=N)N)C(=O)N[C@@H](CCCCNS(=O)(=O)c1ccc(C2=c3cc4c5c(c3Oc3c2cc2c6c3CCCN6CCC2)CCC[N+]=5CCC4)c(S(=O)(=O)[O-])c1)C(=O)O	Oligopeptide-binding protein OppA (oppA, Lactococcus lactis subsp. lactis, UniProt Q07741)	binding, fluorescence anisotropy	pH 5, 45 °C, with: dye-labelled peptide	31000 ± 1000 nM
CC(C)CC(NC(=O)C(NC(=O)NC(C(=O)O)C(C)C)C1CCNC(=N)N1)C(=O)NCCCNC(C(=O)O)C(OC1OC(CN)C(O)C1O)C1OC(n2ccc(=O)[nH]c2=O)C(O)C1O (stereo not drawn)	Phospho-N-acetylmuramoyl-pentapeptide-transferase (mraY, Aquifex aeolicus, UniProt O66465, T75A)	binding, ITC		27.4 nM
CC(C)C[C@H](NC(=O)[C@@H](NC(=O)[C@@H](NC(=O)CN)[C@@H](C)O)C(C)C)C(=O)N1CCC[C@H]1C(=O)N[C@@H](C)C(=O)N[C@@H](C)C(=O)N1CCC[C@H]1C(=O)N[C@@H](Cc1ccc(O)cc1)C(=O)N[C@@H](CCCNC(=N)N)C(=O)N[C@@H](Cc1c[nH]cn1)C(=O)N[C@@H](CCCNC(=N)N)C(=O)N[C@@H](CC(N)=O)C(=O)NCC(=O)NCC(=O)NCC(=O)NCC(=O)NCC(=O)N[C@H](C(=O)N[C@H](C(=O)N[C@@H](CC(C)C)C(=O)N1CCC[C@H]1C(=O)N1CCC[C@H]1C(=O)N1CCC[C@H]1C(=O)N1CCC[C@H]1C(=O)N[C@@H](Cc1ccc(O)cc1)C(=O)N[C@@H](CCCNC(=N)N)C(=O)N[C@@H](Cc1c[nH]cn1)C(=O)N[C@@H](CCCNC(=N)N)C(=O)N[C@@H](CC(N)=O)C(=O)O)C(C)C)[C@@H](C)O	WW domain-containing oxidoreductase, WW1-WW2 tandem domains (WWOX, Homo sapiens, UniProt Q9NZC7)	NMR titration		10000 to 20000 nM
CC(=O)N[C@H]1CCCCn2cc3ccccc3c2SC[C@@H](C(N)=O)NC(=O)[C@H](Cc2ccccc2)NC(=O)[C@H](CO)NC(=O)[C@H](CO)NC(=O)[C@H](CC(C)C)NC(=O)[C@@H]2CCCN2C(=O)[C@H](Cc2ccccc2)NC(=O)[C@H]([C@@H](C)O)NC1=O	Serine/threonine-protein kinase Nek7 (NEK7, Homo sapiens, UniProt Q8TDX7)	binding, BLI		2100 nM
CSCC[C@H](NC(=O)[C@@H](N)Cc1ccc(O)cc1)C(=O)N[C@@H](CO)C(=O)N[C@@H](Cc1ccccc1)C(=O)N[C@H](C(=O)N[C@@H](CCCNC(=N)N)C(=O)N[C@@H](CCCNC(=N)N)C(=O)N[C@H](C(=O)N[C@@H](CCC(=O)O)C(=O)N[C@@H](CO)C(=O)N[C@@H](CC(=O)O)C(=O)N[C@@H](CCCCN)C(=O)N[C@@H](CC(C)C)C(=O)N[C@@H](Cc1c[nH]cn1)C(=O)N[C@@H](CO)C(=O)O)[C@@H](C)O)[C@@H](C)O	Prothrombin (F2, Homo sapiens, UniProt P00734)	microscale thermophoresis	1 h, labelled thrombin	290 nM
CC[C@@H]1C(=O)N(C)c2cnc(Nc3ccc(C(=O)NCCCC[C@H](NC(=O)[C@@H](NC(=O)[C@H](CO)NC(=O)[C@H](Cc4cncn4CCCCCCCCc4ccccc4)NC(=O)[C@H](CC(C)C)NC(=O)[C@@H]4CCCN4C(C)=O)[C@@H](C)OP(=O)(O)O)C(N)=O)cc3OC)nc2N1C1CCCC1	Serine/threonine-protein kinase PLK1 (PLK1, Homo sapiens, UniProt P53350)	binding		19 nM
CC(C)=CCC/C(C)=C/CC/C(C)=C/C(=O)O	Juvenile hormone acid O-methyltransferase (JHAMT, Bombyx mori, UniProt Q767F1)	binding, fluorescence binding	pH 8.0, 25 °C, 200 mM NaCl	200 ± 40 nM
CC[C@H](C)[C@H](NC(=O)[C@H](Cc1c[nH]cn1)NC(=O)[C@H](CCCCNC(=O)[C@@H](NC(=O)[C@H](CCCCN)NC(=O)CSC[C@H](NC(=O)[C@H](Cc1ccccc1)NC(=O)[C@H](CCCCNC(=O)[C@H](CC(C)C)NC(=O)[C@@H]1CCCN1C(=O)[C@H](CCCCN)NC(=O)c1ccc(O[C@@H]2O[C@H](CO)[C@H](O)[C@H](O)[C@H]2O)cc1)NC(=O)[C@H](CC(C)C)NC(=O)[C@@H]1CCCN1C(=O)[C@H](CCCCN)NC(=O)c1ccc(O[C@@H]2O[C@H](CO)[C@H](O)[C@H](O)[C@H]2O)cc1)C(N)=O)[C@@H](C)CC)NC(=O)[C@@H](NC(=O)[C@H](CCCCN)NC(=O)CSC[C@H](NC(=O)[C@H](Cc1ccccc1)NC(=O)[C@H](CCCCNC(=O)[C@H](CC(C)C)NC(=O)[C@@H]1CCCN1C(=O)[C@H](CCCCN)NC(=O)c1ccc(O[C@@H]2O[C@H](CO)[C@H](O)[C@H](O)[C@H]2O)cc1)NC(=O)[C@H](CC(C)C)NC(=O)[C@@H]1CCCN1C(=O)[C@H](CCCCN)NC(=O)c1ccc(O[C@@H]2O[C@H](CO)[C@H](O)[C@H](O)[C@H]2O)cc1)C(N)=O)[C@@H](C)CC)C(N)=O	PA-I galactophilic lectin (lecA, Pseudomonas aeruginosa, UniProt Q05097)	binding, ITC	pH 7.5	23 nM
CC(C)C[C@H](NC(=O)[C@H](CCC(N)=O)NC(=O)[C@H](CCCCN)NC(=O)[C@H](CCCNC(=N)N)NC(=O)[C@@H]1CCCN1C(=O)[C@H](C)NC(=O)[C@H](CCCCN)NC(=O)CNC(=O)[C@@H]1CCCN1C(=O)[C@@H](NC(=O)[C@H](COP(=O)(O)O)NC(=O)[C@H](CCCCN)NC(=O)[C@H](CCCNC(=N)N)NC(=O)[C@H](C)NC(=O)[C@@H](NC(=O)[C@H](CCC(N)=O)NC(=O)[C@H](CCCCN)NC(=O)[C@@H](NC(=O)[C@H](CCCNC(=N)N)NC(=O)[C@H](C)N)[C@@H](C)O)[C@@H](C)O)[C@@H](C)O)C(=O)O	YWHAZ	binding, fluorescence polarization	with: modified histone H3 peptides	19900 nM
Cc1cc(-c2ccc3ccccc3c2)nnc1NCCN1CCN(C)CC1	5-hydroxytryptamine receptor 2B (HTR2B, Homo sapiens, UniProt P41595)	β-arrestin-1 recruitment, antagonist, Schild analysis	with: serotonin	102 nM
CC[C@H](C)[C@H](NC(=O)[C@@H](NC(=O)[C@H](Cc1c[nH]c2ccccc12)NC(=O)[C@H](C)NC(=O)[C@H](CO)NC(=S)Nc1ccc2c(c1)C(=O)OC21c2ccc(O)cc2Oc2cc(O)ccc21)C(C)C)C(=O)N[C@H](C(=O)N[C@H](C(=O)N1CCC[C@H]1C(=O)N[C@@H](Cc1ccccc1)C(=O)N[C@@H](CC(C)C)C(=O)N[C@H](C(=O)N[C@@H](CC(N)=O)C(=O)N[C@@H](CC(C)C)C(=O)O)[C@@H](C)O)[C@@H](C)CC)C(C)C	Rgg transcriptional regulator (Streptococcus pneumoniae, UniProt A0A0E7KI02)	binder, fluorescence polarization	20 min, pH 7.4, 20 °C, fluorescein-labelled peptide	3300 ± 100 nM
CC(C)C[C@H](NC(=O)[C@@H]1CCCN1C(=O)[C@H](CC(=O)O)NC(=O)[C@H](CO)NC(=O)[C@H](C)NC(=O)CC1c2ccccc2-c2ccccc21)C(=O)NCC(=O)N[C@H](C(=O)N[C@H](C(=O)N[C@@H](CCCNC(=N)N)C(=O)N1CCC[C@H]1C(=O)N[C@@H](CCCNC(=N)N)C(=O)N[C@@H](C)C(=O)N[C@@H](CCCNC(=N)N)C(N)=O)C(C)C)C(C)C	Klotho (Kl, Mus musculus, UniProt O35082)	BLI competition binding	30 min, 30 °C, with: 100 nM mouse Klotho, immobilized Pep-10-Biotin	64 ± 27 nM
CC(=O)N[C@@H](CCCNC(=N)N)C(=O)N[C@H](C(=O)N1CCC[C@H]1C(=O)N[C@@H](COP(=O)(O)O)C(=O)N[C@@H](CC(C)C)C(=O)N1CCC[C@H]1C(=O)N[C@H](C(=O)N1CCC[C@H]1C(c1ccccc1)c1ccccc1)[C@@H](C)O)[C@@H](C)O	YWHAZ	binding, ITC		5400 nM
O=[N+]([O-])c1c(Br)c(Cl)c2cccnc2c1O	Metallo-beta-lactamase type 2 (blaNDM-1, Klebsiella pneumoniae, UniProt C7C422)	binding, MST		320 nM
CC(=O)N[C@@H](Cc1c[nH]c2ccccc12)C(=O)N[C@@H](C)C(=O)N1CCC[C@H]1C(=O)N1CCC[C@H]1C(=O)N[C@@H](CC(C)C)C(=O)N[C@@H](Cc1c[nH]cn1)C(=O)N[C@@H](CO)C(=O)N[C@H](C(=O)N[C@@H](C)C(N)=O)[C@@H](C)OP(=O)(O)O	Serine/threonine-protein kinase PLK1, polo-box (PLK1, Homo sapiens, UniProt P53350)	binding, MST		29.6 nM
CCCCCCCC(=O)N[C@@H](CCCCNS(=O)(=O)c1cccc2c(N(C)C)cccc12)C(=O)N[C@H](C(=O)N[C@@H](CCN)C(=O)N[C@H]1CCNC(=O)[C@H]([C@@H](C)O)NC(=O)[C@H](CCN)NC(=O)[C@H](CCN)NC(=O)[C@H](CC(C)C)NC(=O)[C@@H](Cc2ccccc2)NC(=O)[C@H](CCN)NC1=O)[C@@H](C)O	Escherichia coli lipopolysaccharide	isothermal titration calorimetry	pH 7.0, 37 °C, second binding site set	24000 ± 7200 nM
CC[C@H](C)[C@H](NC(=O)[C@H](CCCNC(=N)N)NC(=O)[C@H](CCC(=O)O)NC(=O)[C@@H](N)CCC(=O)O)C(=O)N[C@@H](Cc1ccccc1)C(=O)N[C@@H](CCCNC(=N)N)C(=O)N[C@@H](CCCNC(=N)N)C(=O)N[C@H](C(=O)NCC(=O)NCC(=O)N[C@@H](CC(C)C)C(=O)N[C@@H](Cc1ccccc1)C(=O)NCC(=O)N[C@@H](CCC(N)=O)C(=O)N[C@H](C(=O)N[C@@H](CC(=O)O)C(=O)O)C(C)C)[C@@H](C)O	JPH2 (Homo sapiens, UniProt Q9BR39, del162-274)	isothermal titration calorimetry	pH 7.4, 25 °C	1800 nM

Repeated from above:
SMILES	target	assay	conditions	Kd
CSCC[C@H](NC(=O)[C@@H](N)Cc1ccc(O)cc1)C(=O)N[C@@H](CO)C(=O)N[C@@H](Cc1ccccc1)C(=O)N[C@H](C(=O)N[C@@H](CCCNC(=N)N)C(=O)N[C@@H](CCCNC(=N)N)C(=O)N[C@H](C(=O)N[C@@H](CCC(=O)O)C(=O)N[C@@H](CO)C(=O)N[C@@H](CC(=O)O)C(=O)N[C@@H](CCCCN)C(=O)N[C@@H](CC(C)C)C(=O)N[C@@H](Cc1c[nH]cn1)C(=O)N[C@@H](CO)C(=O)O)[C@@H](C)O)[C@@H](C)O	Prothrombin (F2, Homo sapiens, UniProt P00734)	microscale thermophoresis	1 h, labelled thrombin	290 nM
